Assay results from different studies.
Numbered parts are unrelated; each lists some results of a single study. “And” joins repeats or separate records; there may be more than shown.
UniProt P07949, sequence (whole entry, unmodified, looked up): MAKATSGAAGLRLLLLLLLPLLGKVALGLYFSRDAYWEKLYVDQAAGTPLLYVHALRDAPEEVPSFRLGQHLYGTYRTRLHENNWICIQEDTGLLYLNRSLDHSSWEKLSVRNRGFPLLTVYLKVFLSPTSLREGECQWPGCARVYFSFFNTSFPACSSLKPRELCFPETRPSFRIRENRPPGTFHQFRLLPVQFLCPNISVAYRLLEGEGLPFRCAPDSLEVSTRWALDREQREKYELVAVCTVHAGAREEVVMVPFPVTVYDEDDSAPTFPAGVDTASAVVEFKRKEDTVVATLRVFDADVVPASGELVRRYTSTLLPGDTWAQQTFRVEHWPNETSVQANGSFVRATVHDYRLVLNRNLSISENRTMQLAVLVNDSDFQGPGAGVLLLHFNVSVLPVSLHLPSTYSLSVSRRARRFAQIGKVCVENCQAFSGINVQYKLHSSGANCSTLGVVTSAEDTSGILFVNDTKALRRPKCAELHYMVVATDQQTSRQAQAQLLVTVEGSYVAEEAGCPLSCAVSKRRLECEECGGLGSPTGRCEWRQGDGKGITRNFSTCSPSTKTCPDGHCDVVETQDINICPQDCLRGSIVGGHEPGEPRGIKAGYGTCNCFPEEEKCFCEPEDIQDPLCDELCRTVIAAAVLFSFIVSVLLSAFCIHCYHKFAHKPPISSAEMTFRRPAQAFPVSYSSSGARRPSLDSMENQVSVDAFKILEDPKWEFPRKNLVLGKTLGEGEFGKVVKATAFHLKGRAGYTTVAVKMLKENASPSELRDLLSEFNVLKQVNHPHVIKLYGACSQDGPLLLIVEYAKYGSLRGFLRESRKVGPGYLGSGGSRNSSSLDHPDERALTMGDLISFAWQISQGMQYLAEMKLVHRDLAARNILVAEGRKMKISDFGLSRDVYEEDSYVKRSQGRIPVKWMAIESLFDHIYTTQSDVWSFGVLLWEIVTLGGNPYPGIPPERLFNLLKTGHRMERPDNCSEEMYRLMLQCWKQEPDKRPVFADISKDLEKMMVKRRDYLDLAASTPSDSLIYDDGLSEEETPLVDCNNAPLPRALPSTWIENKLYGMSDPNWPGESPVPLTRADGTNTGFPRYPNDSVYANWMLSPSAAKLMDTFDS
UniProt P45983, sequence (whole entry, looked up): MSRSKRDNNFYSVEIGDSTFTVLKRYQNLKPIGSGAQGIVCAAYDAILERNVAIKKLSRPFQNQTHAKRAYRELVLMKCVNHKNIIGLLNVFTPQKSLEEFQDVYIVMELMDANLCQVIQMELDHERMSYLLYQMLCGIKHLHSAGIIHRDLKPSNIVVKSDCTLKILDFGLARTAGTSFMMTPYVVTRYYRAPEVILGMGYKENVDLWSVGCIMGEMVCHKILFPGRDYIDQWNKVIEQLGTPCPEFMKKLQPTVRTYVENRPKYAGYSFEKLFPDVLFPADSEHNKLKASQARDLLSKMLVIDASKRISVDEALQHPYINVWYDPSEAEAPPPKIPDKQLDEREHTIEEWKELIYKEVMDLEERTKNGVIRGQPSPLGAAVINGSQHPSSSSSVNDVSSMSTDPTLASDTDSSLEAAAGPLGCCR
UniProt O75582, sequence (whole entry, looked up): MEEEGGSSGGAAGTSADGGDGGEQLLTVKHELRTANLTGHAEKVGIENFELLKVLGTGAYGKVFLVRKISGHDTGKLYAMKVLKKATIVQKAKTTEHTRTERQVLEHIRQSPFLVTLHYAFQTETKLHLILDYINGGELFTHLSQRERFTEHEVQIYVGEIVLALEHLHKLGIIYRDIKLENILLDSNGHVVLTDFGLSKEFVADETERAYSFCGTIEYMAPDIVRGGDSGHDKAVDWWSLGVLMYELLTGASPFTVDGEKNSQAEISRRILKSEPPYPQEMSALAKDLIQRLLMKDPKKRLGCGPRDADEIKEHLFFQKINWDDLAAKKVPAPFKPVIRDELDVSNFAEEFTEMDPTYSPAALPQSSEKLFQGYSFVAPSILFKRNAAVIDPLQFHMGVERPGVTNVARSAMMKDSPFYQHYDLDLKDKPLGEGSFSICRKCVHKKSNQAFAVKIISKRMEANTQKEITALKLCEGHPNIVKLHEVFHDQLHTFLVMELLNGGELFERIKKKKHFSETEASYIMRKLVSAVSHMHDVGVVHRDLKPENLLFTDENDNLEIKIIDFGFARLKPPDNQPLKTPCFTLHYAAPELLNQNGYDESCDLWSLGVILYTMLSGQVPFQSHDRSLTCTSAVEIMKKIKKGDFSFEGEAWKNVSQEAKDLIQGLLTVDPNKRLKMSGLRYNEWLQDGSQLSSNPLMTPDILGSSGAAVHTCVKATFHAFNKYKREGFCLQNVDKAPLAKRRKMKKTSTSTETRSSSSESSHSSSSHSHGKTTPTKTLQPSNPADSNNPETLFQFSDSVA
UniProt O14733, sequence (whole entry, looked up): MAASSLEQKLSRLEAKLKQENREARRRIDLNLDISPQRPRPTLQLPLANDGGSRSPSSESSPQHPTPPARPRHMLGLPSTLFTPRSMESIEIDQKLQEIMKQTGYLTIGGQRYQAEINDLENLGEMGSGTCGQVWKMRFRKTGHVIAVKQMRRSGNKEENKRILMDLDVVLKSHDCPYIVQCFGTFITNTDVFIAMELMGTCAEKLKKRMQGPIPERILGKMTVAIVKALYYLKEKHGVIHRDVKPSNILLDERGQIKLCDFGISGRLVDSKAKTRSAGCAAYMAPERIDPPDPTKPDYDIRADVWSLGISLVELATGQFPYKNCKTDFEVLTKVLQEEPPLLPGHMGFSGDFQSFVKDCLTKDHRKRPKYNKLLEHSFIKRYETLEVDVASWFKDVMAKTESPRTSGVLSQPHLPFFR
UniProt Q8NI60, sequence (whole entry, looked up): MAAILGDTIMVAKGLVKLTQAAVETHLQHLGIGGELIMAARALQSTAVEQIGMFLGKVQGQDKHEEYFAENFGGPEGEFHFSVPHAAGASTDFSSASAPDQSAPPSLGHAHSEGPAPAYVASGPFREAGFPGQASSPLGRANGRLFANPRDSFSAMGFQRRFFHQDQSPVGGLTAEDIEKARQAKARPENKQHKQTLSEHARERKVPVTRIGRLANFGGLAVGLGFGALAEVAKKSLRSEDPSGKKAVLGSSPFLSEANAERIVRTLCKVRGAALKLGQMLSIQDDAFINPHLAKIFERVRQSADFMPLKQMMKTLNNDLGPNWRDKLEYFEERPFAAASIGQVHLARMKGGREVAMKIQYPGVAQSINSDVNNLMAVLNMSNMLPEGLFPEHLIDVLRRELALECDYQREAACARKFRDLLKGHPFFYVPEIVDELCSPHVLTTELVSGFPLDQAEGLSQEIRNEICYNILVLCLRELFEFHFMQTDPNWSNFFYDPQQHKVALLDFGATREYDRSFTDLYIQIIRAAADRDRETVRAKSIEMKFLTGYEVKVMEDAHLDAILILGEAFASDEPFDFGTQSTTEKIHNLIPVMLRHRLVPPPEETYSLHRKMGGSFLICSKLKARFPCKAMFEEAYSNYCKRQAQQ
UniProt Q9BWU1, sequence (whole entry, looked up): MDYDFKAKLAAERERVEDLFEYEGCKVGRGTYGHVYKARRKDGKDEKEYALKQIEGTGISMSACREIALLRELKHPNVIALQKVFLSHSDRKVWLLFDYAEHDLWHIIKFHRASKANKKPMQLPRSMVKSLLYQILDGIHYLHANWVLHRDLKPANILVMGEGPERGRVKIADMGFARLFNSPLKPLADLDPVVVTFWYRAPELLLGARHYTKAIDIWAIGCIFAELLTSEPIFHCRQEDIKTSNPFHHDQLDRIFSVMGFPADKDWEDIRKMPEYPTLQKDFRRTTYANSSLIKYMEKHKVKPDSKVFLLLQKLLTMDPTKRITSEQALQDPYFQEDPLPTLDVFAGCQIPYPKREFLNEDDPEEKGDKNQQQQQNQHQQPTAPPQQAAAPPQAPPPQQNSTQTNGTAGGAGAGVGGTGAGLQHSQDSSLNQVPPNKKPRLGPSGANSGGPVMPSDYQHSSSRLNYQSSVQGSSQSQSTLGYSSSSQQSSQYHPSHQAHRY
UniProt O96013, sequence (whole entry, looked up): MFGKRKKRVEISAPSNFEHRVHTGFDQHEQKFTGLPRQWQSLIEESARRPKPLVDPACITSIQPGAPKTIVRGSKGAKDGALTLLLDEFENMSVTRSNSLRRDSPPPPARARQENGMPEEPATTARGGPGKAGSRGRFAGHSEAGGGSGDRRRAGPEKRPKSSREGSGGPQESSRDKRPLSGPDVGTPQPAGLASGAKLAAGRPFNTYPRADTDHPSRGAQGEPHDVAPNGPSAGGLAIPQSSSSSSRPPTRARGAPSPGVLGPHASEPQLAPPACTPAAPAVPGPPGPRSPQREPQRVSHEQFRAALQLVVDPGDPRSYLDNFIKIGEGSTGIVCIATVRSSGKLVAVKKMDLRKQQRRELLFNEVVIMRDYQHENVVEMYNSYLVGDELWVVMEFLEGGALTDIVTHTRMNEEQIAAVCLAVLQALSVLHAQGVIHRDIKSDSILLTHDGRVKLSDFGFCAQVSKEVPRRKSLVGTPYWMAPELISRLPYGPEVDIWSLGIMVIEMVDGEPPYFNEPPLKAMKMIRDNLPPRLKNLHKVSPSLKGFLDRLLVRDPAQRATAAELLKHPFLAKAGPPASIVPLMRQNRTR
UniProt O14965, sequence (whole entry, looked up): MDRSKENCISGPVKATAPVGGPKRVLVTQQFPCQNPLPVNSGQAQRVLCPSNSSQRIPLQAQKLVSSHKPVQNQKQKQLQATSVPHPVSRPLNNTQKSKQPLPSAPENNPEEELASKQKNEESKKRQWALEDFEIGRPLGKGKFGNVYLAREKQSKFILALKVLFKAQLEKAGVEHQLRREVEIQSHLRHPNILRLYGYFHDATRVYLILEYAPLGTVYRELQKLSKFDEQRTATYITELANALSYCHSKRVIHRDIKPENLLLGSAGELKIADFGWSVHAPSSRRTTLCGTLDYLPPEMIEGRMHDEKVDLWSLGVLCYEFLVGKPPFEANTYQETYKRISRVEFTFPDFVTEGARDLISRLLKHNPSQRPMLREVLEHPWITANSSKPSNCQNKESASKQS

Sample 1 — host: mouse; medium: microsomes or S9; tested at: 2 µM; time: 0.5 h
Compound | remaining compound [%]
CN(Cc1cnn(-c2ccccc2)c1)c1ccc(C#N)cn1 | 0.394
CCOC1CC(OC(=O)c2csc(-c3ccco3)n2)C12CCC2 (centres unmarked) | 0.00591
O=c1c2ccccc2nc(-c2ccco2)n1-c1nc2ccccc2s1 | 34.4
COc1cc(Br)c(S(=O)(=O)NCCOc2ccc(C(C)(C)C)cc2)cc1OC | 1.95
N#Cc1cnn2c(O)cc(Cc3ccccc3)nc12 | > 100
CC(C)CN(CCNS(=O)(=O)c1ccc(-c2ccc(=O)[nH]n2)s1)CC(C)C | 0.0738
Clc1ccc(C2=Nc3c(nnn3Cc3ccccc3)C3=NCCN23)cc1 | > 100
CC1(C)Oc2ccc(C#N)cc2[C@@H](NC(=O)c2ccc(F)cc2)[C@@H]1O | 69.3
CCOC(=O)c1ccc(NC(=O)N(Cc2ccc3c(c2)OCO3)C2CCN(CC)CC2)cc1 | 50.3
COc1ccc(C)cc1N(C)C(=O)c1cc2ccc3cccnc3c2[nH]1 | 0.279

Sample 2 — effect on: binding; action: competitor; method: NanoBRET; cell line: HEK293
Structure (SMILES): CC(C)C(=O)N1CCN(c2nc(OC[C@@H]3CCCN3C)nc3c2CCN(c2cccc4cccc(Cl)c24)C3)C[C@@H]1CC#N
KRAS G12D: GTPase KRas (KRAS, Homo sapiens, UniProt P01116, G12D)
target | tested at | normalized BRET
KRAS G12D | 11.1 µM | 108% and 127% and 117%
KRAS G12D | 1.24 µM | 104% and 89.1% and 97.7%
KRAS G12D | 15.2 nM | 95.6% and 94.9% and 89.2%
GTPase KRas (KRAS, Homo sapiens, UniProt P01116, Q61R) | 3.7 µM | 113% and 94.3% and 108%
KRAS G12D | 45.7 nM | 94.6% and 86.4% and 95.1%
GTPase KRas (KRAS, Homo sapiens, UniProt P01116, Q61L) | 11.1 µM | 87.9% and 82.7% and 87.5%
GTPase KRas (KRAS, Homo sapiens, UniProt P01116, Q61H) | 33.3 µM | 64.9% and 49.1% and 56.1%
GTPase KRas (KRAS, Homo sapiens, UniProt P01116, G13D) | 1.24 µM | 97.6% and 91.6% and 92.2%

Sample 3 — tested at: 1 µM
Structure (SMILES): CCS(=O)(=O)c1cc2cc(C[C@@](O)(CC(C)(C)c3ccc(F)cc3C(N)=O)C(F)(F)F)[nH]c2cn1
target | effect on | method | remaining binding
MAPK15 (Homo sapiens, UniProt Q8TD08) | cell-free assay | competition with immobilised ligand | 100%
KIT (Homo sapiens, UniProt P10721, A829P) | cell-free assay | competition with immobilised ligand | 73%
Aurora kinase A (AURKA, Homo sapiens, UniProt O14965) | cell-free assay | competition with immobilised ligand | 88%
NEK6 (Homo sapiens, UniProt Q9HC98) | cell-free assay | competition with immobilised ligand | 100%
PDGFRB (Homo sapiens, UniProt P09619) | cell-free assay | competition with immobilised ligand | 100%
BRSK1 (Homo sapiens, UniProt Q8TDC3) | cell-free assay | competition with immobilised ligand | 73%
CDK19 (Homo sapiens, UniProt Q9BWU1) |  | competition binding | 100%
EPHA5 (Homo sapiens, UniProt P54756) | cell-free assay | competition with immobilised ligand | 100%
SYK (Homo sapiens, UniProt P43405) | cell-free assay | competition with immobilised ligand | 92%
BMPR1B (Homo sapiens, UniProt O00238) | cell-free assay | competition with immobilised ligand | 55%
PAK4 (Homo sapiens, UniProt O96013) | cell-free assay | competition with immobilised ligand | 88%
COQ8A (Homo sapiens, UniProt Q8NI60) | cell-free assay | competition with immobilised ligand | 95%
MAPK8 (Homo sapiens, UniProt P45983) | cell-free assay | competition with immobilised ligand | 98%
RET (Homo sapiens, UniProt P07949, M918T) | cell-free assay | competition with immobilised ligand | 98%
Ribosomal protein S6 kinase alpha-5, C-terminal kinase domain (RPS6KA5, Homo sapiens, UniProt O75582) | cell-free assay | competition with immobilised ligand | 69%
MAP2K7 (Homo sapiens, UniProt O14733) | cell-free assay | competition with immobilised ligand | 99%

Sample 4 — effect on: enzyme activity; action: inhibitor; tested at: 0.5 µM; relative to: control
Target: Serine/threonine-protein kinase ULK1 (ULK1, Homo sapiens, UniProt O75385)
Target sequence (O75385 1-1050): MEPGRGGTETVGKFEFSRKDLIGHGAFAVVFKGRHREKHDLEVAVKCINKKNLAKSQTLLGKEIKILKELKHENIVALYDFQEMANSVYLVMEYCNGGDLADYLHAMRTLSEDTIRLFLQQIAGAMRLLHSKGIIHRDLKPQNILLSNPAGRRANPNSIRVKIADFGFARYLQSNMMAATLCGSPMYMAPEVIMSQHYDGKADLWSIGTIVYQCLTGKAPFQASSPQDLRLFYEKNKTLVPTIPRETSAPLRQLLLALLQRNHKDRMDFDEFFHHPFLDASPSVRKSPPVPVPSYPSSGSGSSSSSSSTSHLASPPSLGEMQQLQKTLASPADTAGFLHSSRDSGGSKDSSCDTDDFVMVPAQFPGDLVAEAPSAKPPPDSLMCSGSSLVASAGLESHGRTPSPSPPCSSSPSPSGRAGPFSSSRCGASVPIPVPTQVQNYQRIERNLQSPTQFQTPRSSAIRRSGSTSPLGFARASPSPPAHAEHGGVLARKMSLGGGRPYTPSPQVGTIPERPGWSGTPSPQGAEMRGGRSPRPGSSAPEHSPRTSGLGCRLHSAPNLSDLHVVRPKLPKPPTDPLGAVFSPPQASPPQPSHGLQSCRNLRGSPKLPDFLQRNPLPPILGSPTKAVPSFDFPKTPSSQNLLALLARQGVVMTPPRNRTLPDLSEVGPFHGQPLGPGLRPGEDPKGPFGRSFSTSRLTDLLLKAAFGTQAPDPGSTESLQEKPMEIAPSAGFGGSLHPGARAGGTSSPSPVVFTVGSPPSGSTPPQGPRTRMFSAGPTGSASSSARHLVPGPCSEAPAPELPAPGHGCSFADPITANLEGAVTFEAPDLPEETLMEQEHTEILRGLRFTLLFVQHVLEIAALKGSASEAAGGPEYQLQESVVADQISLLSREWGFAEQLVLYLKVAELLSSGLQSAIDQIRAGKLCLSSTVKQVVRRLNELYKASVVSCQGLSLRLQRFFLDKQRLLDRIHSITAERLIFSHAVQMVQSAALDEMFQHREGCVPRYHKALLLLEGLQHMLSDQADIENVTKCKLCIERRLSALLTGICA
SMILES | remaining activity [%]
COc1cc2nccc(Oc3ccc(NC(=S)NC(=O)c4ccccc4C)cc3)c2cc1OC | 95
Nc1[nH]nc2nc3ccccc3nc12 | 106
O=C(CCCc1ccc(-c2ccccc2F)cc1)Nc1ccc(O)cc1 | 106
O=C(O)c1ccc2c3c1cccc3c(=O)n1c3ccccc3nc21 | 83.5
CNC(=O)c1cc(Oc2ccc(NC(=O)Nc3ccc(Cl)c(C(F)(F)F)c3)cc2)ccn1 | 94.3
Oc1ccc(-c2nc(-c3ccncc3)c(-c3ccc(F)cc3)[nH]2)cc1 | 89
O=S(=O)(c1cccc2cnccc12)N1CCCNCC1 | 103
Cn1sc(=O)n(Cc2ccccc2)c1=O | 98.9
COc1ccc(OC)c2c(=S)c3ccccc3[nH]c12 | 114
Cn1c2ccccc2c2c3c(c4c5ccccc5n(CCC#N)c4c21)CNC3=O | 106
CO[C@H]1C[C@@H]2CC[C@@H](C)[C@@](O)(O2)C(=O)C(=O)N2CCCC[C@H]2C(=O)O[C@H]([C@H](C)C[C@@H]2CC[C@@H](O)[C@H](OC)C2)CC(=O)[C@H](C)/C=C(\C)[C@@H](O)[C@@H](OC)C(=O)[C@H](C)C[C@H](C)/C=C/C=C/C=C/1C | 87.9
COc1cc2ncnc(Nc3ccc(Oc4ccccc4)cc3)c2cc1OC | 89.5
O=C(Nc1cccc(Nc2cc(Nc3cccc(C(F)(F)F)c3)ncn2)c1)C1CC1 | 100
COc1ccc(C(=O)Nc2sc3c(c2C(N)=O)CCCC3)cc1OC | 96
NCCNc1ncc(C(N)=O)c(Nc2cccc(C(F)(F)F)c2)n1 | 74.1
Cc1cccc(-c2[nH]c(C(C)(C)C)nc2-c2ccc3c(c2)OCO3)n1 | 82.7

For quick reference, copied from above (sample 4):
SMILES | remaining activity [%]
Cn1c2ccccc2c2c3c(c4c5ccccc5n(CCC#N)c4c21)CNC3=O | 106
CO[C@H]1C[C@@H]2CC[C@@H](C)[C@@](O)(O2)C(=O)C(=O)N2CCCC[C@H]2C(=O)O[C@H]([C@H](C)C[C@@H]2CC[C@@H](O)[C@H](OC)C2)CC(=O)[C@H](C)/C=C(\C)[C@@H](O)[C@@H](OC)C(=O)[C@H](C)C[C@H](C)/C=C/C=C/C=C/1C | 87.9
COc1cc2ncnc(Nc3ccc(Oc4ccccc4)cc3)c2cc1OC | 89.5
